{"data": "Published values gathered from unrelated publications", "SLC7A5": "Large neutral amino acids transporter small subunit 1 (SLC7A5, Homo sapiens, UniProt Q01650)", "ppa": "Inorganic pyrophosphatase (ppa, Escherichia coli, UniProt P0A7A9)", "DNA dC->dU-editing enzyme APOBEC-3B C-terminal domain": "DNA dC->dU-editing enzyme APOBEC-3B, C-terminal domain (Homo sapiens, UniProt Q9UH17)", "CHRM3": "Muscarinic acetylcholine receptor M3 (CHRM3, Homo sapiens, UniProt P20309)", "Uncharacterized protein": "Uncharacterized protein (Trypanosoma brucei brucei, UniProt Q386Q8)", "Gria1": "Glutamate receptor 1 (Gria1, Rattus norvegicus, UniProt P19490)", "NTSR1": "Neurotensin receptor type 1 (NTSR1, Homo sapiens, UniProt P30989)", "TDP1": "Tyrosyl-DNA phosphodiesterase 1 (TDP1, Homo sapiens, UniProt Q9NUW8)", "PIK3CD": "Phosphatidylinositol 4,5-bisphosphate 3-kinase catalytic subunit delta isoform (PIK3CD, Homo sapiens, UniProt O00329)", "ADRB2": "Beta-2 adrenergic receptor (ADRB2, Homo sapiens, UniProt P07550)", "NNMT": "Nicotinamide N-methyltransferase (NNMT, Homo sapiens, UniProt P40261)", "note": "Each line is one published result; not all experiments were run side by side. “And” joins repeats or separate records; there may be more than shown. Numbers after ± are the reported error.", "sequence of UniProt O00329 (whole entry, looked up)": "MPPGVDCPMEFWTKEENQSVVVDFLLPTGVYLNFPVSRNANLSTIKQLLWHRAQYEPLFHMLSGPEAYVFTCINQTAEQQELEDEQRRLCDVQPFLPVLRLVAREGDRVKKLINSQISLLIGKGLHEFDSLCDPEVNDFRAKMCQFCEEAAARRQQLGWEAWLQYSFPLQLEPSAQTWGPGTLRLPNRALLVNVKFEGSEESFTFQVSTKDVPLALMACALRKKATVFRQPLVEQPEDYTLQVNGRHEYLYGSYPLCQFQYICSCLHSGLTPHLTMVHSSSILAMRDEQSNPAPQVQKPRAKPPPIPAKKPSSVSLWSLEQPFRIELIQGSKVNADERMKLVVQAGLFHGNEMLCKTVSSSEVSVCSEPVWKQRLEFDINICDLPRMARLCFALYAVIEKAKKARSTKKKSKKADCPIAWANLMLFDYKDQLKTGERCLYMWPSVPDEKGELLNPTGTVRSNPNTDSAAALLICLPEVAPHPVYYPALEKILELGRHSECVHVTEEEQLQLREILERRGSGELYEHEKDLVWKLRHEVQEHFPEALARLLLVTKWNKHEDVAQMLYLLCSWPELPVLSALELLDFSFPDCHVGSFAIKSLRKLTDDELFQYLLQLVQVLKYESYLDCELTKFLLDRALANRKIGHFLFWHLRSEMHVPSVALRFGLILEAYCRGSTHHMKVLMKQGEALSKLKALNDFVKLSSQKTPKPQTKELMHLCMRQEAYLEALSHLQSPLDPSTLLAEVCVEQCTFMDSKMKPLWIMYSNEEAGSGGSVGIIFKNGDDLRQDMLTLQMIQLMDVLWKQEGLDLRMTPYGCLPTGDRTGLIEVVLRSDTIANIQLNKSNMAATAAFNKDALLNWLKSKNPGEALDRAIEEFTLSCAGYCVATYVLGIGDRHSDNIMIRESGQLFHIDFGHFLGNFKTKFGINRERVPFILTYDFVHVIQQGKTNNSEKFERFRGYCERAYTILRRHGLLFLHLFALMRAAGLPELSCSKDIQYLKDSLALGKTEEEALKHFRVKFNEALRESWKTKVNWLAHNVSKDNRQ", "sequence of UniProt P0A7A9 (whole entry, looked up)": "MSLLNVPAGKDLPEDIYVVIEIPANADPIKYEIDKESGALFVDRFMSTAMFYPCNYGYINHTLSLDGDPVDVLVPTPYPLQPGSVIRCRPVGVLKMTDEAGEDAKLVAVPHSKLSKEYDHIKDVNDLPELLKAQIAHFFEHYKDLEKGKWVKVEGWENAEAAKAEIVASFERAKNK", "sequence of UniProt P40261 (whole entry, looked up)": "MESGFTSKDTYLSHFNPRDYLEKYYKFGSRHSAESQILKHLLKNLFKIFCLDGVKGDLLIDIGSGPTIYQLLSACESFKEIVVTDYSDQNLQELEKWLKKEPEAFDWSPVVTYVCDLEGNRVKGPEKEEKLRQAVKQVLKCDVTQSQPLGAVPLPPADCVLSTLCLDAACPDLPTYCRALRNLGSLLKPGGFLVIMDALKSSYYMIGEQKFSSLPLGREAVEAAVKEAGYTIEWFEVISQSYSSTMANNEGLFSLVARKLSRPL", "sequence of UniProt P07550 (whole entry, looked up)": "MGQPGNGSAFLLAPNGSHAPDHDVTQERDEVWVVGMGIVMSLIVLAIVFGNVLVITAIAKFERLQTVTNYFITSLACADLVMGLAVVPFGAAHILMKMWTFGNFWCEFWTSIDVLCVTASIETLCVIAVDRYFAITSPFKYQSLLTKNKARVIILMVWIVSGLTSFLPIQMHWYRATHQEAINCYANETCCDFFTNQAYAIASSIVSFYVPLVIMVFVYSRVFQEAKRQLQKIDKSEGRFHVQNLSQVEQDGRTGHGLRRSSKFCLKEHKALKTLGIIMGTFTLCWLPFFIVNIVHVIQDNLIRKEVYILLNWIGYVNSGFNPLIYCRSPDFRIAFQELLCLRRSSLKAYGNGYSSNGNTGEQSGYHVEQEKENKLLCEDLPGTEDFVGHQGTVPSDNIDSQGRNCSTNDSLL", "sequence of UniProt P30989 (whole entry, looked up)": "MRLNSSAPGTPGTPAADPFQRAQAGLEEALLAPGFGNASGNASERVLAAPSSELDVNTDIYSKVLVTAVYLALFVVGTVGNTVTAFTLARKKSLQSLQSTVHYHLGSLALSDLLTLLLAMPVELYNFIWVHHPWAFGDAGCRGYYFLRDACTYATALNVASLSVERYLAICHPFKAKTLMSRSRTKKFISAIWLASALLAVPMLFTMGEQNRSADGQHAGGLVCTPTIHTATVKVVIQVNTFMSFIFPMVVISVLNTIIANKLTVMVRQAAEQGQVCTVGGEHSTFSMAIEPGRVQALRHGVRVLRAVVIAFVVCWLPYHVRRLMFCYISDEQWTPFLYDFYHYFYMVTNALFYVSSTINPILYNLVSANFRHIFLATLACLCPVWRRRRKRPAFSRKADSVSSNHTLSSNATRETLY", "sequence of UniProt P19490 (whole entry, looked up)": "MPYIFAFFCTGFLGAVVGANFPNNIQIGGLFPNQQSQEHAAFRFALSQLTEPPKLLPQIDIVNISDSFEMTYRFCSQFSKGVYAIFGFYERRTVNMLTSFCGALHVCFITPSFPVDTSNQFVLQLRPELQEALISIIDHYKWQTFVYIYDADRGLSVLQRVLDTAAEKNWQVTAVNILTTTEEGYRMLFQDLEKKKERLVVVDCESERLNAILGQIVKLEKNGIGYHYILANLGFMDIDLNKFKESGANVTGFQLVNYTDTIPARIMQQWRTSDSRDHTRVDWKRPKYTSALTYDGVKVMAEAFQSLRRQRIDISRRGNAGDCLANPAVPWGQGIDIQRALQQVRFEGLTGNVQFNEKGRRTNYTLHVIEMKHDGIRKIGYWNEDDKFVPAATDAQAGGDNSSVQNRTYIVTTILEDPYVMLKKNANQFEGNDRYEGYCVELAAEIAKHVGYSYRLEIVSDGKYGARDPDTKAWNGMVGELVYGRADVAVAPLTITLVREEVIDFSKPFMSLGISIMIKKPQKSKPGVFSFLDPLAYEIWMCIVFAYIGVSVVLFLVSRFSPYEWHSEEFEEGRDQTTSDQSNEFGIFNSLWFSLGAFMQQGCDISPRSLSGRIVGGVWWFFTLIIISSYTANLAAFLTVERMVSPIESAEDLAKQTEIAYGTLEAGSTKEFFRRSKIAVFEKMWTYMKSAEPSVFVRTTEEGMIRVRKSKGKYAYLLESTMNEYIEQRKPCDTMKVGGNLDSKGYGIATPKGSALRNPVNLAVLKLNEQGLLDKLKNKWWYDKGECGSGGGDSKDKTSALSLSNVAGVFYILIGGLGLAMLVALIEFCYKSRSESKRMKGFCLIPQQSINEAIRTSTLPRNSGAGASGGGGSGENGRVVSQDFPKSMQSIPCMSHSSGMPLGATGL", "sequence of UniProt Q01650 (whole entry, looked up)": "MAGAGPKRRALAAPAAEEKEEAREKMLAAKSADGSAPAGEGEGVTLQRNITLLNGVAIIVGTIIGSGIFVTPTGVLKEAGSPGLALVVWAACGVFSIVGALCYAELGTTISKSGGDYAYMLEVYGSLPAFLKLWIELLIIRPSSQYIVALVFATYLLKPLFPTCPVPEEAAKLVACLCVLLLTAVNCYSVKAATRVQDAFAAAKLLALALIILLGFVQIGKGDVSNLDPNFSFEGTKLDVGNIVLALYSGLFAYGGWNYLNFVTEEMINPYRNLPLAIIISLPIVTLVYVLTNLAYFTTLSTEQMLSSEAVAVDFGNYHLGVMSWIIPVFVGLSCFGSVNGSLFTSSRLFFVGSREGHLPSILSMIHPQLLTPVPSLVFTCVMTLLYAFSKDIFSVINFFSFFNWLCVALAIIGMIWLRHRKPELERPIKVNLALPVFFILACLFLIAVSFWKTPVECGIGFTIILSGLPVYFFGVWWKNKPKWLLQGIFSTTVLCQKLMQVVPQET", "sequence of UniProt Q9UH17 (whole entry, looked up)": "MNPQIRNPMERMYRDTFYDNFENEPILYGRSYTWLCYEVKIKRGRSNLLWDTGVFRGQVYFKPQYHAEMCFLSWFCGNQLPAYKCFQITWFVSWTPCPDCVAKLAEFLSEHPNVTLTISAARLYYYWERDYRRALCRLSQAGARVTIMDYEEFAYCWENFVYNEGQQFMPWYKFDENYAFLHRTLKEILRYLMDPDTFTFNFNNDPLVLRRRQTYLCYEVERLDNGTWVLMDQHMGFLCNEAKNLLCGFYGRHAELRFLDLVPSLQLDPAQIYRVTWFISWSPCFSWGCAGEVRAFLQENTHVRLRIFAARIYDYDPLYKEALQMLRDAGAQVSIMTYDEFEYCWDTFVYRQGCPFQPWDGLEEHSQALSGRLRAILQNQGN", "sequence of UniProt Q9NUW8 (whole entry, looked up)": "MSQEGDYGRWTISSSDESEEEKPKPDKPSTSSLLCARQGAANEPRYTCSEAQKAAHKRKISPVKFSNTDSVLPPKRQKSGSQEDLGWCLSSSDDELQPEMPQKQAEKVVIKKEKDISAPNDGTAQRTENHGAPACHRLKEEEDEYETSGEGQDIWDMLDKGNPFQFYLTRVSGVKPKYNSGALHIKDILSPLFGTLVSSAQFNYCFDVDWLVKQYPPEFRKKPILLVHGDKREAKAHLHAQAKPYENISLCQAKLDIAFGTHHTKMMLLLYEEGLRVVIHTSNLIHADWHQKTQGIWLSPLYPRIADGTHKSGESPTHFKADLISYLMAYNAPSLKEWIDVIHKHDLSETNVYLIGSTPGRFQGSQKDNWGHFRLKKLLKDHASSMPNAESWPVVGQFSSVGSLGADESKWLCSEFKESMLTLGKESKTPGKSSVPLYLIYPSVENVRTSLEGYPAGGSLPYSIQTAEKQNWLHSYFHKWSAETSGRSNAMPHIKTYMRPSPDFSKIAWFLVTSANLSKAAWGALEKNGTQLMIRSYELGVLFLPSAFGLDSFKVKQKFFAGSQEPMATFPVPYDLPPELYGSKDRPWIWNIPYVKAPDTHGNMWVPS", "sequence of UniProt P09391 (whole entry, looked up)": "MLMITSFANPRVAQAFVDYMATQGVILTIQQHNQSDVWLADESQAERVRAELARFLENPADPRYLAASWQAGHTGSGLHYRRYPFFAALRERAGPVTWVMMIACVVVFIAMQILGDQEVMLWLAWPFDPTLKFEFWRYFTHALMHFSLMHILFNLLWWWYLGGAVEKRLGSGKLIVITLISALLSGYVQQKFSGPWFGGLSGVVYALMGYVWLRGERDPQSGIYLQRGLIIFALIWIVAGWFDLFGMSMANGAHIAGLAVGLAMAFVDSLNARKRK"}
{"Compound": "N[C@@H](Cc1c[nH]c2ccc(OCc3ccccc3-c3ccccc3)cc12)C(=O)O", "target": "SLC7A5", "assay": "transporter uptake, inhibitor, radiometric", "quantity": "IC50", "value": "7.97 µM"}
{"Compound": "COc1ccccc1N1Cc2ccc(OC)c(OC)c2C1=O", "target": "ppa", "assay": "enzyme activity, inhibitor", "quantity": "IC50", "value": "> 100 µM"}
{"Compound": "Cc1ccc(N=C2CC(=O)c3sc(C)nc3C2=O)cc1", "target": "EHMT1 (Homo sapiens, UniProt Q9H9B1)", "assay": "enzyme activity, inhibitor", "quantity": "IC50", "value": "4.7 µM"}
{"Compound": "O=C(c1cccc(-c2cc(NCCO)ncn2)c1)N1CCCC1c1ccccc1 (stereo not drawn)", "target": "DNA dC->dU-editing enzyme APOBEC-3B C-terminal domain", "assay": "deaminase activity, inhibitor, UDG-coupled deamination", "quantity": "IC50", "value": "455 ± 52 µM"}
{"Compound": "Oc1cc(O)c2c(c1)OC(c1ccc(O)c(O)c1)C(OC1(c3ccc(O)c(O)c3)Oc3cc(O)cc(O)c3C(O)C1O)C2 (stereo not drawn)", "target": "CHRM3", "assay": "DMR desensitization", "test system": "HT-29", "conditions": "added: acetylcholine", "quantity": "IC50", "value": "57 µM"}
{"Compound": "CC(=O)C1=C(c2ccc(OC(F)F)cc2)N(C(C)=O)n2cnnc2S1", "target": "Uncharacterized protein", "assay": "enzyme activity, inhibitor, coupled colorimetric", "conditions": "added: E. coli pyrophosphatase coupling", "quantity": "IC50", "value": "42.4 µM"}
{"Compound": "O=C(O)Cc1cc2c(cc1C(=O)c1ccccc1I)OCO2", "target": "Gria1", "assay": "ion current, patch clamp", "quantity": "IC50", "value": "4.81 µM"}
{"Compound": "COc1ccccc1C1CCN(c2nc(C3(F)CC3)nc3ccc(N(C)CCN4CCOCC4)cc23)CC1", "target": "NTSR1", "assay": "G protein activation, antagonist, BRET", "quantity": "IC50", "value": "3.72 µM"}
{"Compound": "O=C(O)c1ccc(Nc2c(-c3ccc(CON=Cc4cccnc4Oc4ccc(Cl)cc4)cc3)nc3cc(-c4ccccc4)ccn23)cc1", "target": "TDP1", "assay": "enzyme activity, inhibitor", "conditions": "100 µM, unpurified compound", "quantity": "inhibition", "value": "17.7%"}
{"Compound": "Cc1cnc(Nc2ccc3c(c2)CCN(C(=O)/C=C/C(=O)C(C)C)C3)nc1-c1cnn(C(C)C)c1", "target": "JAK1 (Homo sapiens, UniProt P23458)", "assay": "enzyme activity, inhibitor, ADP detection", "quantity": "IC50", "value": "0.00746 µM"}
{"Compound": "O=C1Nc2ccccc2/C1=N/c1ccc(Cl)cc1Br", "target": "PIK3CD", "assay": "enzyme activity, inhibitor, ADP detection", "quantity": "IC50", "value": "0.0618 µM"}
{"Compound": "CCC1(O)CCCN(C(=O)c2ccc(-c3ccc(F)c(C(N)=O)c3)cc2)C1 (stereo not drawn)", "target": "DNA dC->dU-editing enzyme APOBEC-3B C-terminal domain", "assay": "deaminase activity, inhibitor, UDG-coupled deamination", "quantity": "IC50", "value": "851 ± 38 µM"}
{"Compound": "CCOc1ccc2[nH]c(-c3ccccn3)nc2c1", "target": "Core-binding factor subunit beta, with RUNX1 Runt domain (Homo sapiens, UniProt Q13951)", "assay": "Runt domain binding, inhibitor, FRET", "quantity": "IC50", "value": "≥ 34 µM"}
{"Compound": "CC(C)c1ccc(/C=C/C(=O)c2nc3ccccc3[nH]2)cc1", "target": "MAOB (Homo sapiens, UniProt P27338)", "assay": "enzyme activity, inhibitor", "quantity": "IC50", "value": "4.71 µM"}
{"Compound": "Cc1cc(C=NOCc2ccc(-c3nc4cc(-c5ccccc5)ccn4c3Nc3ccc(C(=O)O)cc3)cc2)c(C)n1-c1ccncc1", "target": "TDP1", "assay": "enzyme activity, inhibitor", "conditions": "100 µM, unpurified compound", "quantity": "inhibition", "value": "83.7%"}
{"Compound": "Cc1nc(Nc2ccc3c(c2)/C(=C/c2ccccc2Cl)C(=O)N3C)c2ccccc2n1", "target": "PIK3CD", "assay": "enzyme activity, inhibitor, ADP detection", "quantity": "IC50", "value": "0.362 µM"}
{"Compound": "CN(C)c1nc(NCc2ccc(Oc3ccccc3)cc2)c(/N=N/c2ccc(Cl)cc2)c(N(C)C)n1", "target": "Chitinase (OfChi-h, Ostrinia furnacalis, UniProt Q4AE59)", "assay": "enzyme activity, inhibitor, fluorescence", "quantity": "IC50", "value": "0.09 µM"}
{"Compound": "C[N+](C)(CCCN1c2ccccc2CCc2ccc(Cl)cc21)Cc1ccccc1", "target": "ppa", "assay": "inhibitor, counter-screen, coupling enzyme alone", "quantity": "IC50", "value": "29.2 µM"}
{"Compound": "C[C@@H](Nc1nc2c(cnn2C(C)(C)C)c(=O)n1Cc1cccc(F)c1)c1ccc(Cl)cc1", "target": "PDE4D (Homo sapiens, UniProt Q08499)", "assay": "enzyme activity, inhibitor", "quantity": "IC50", "value": "0.773 µM"}
{"Compound": "COC(CC1C(C)=CCC2C1(C)CCC1C(C)(C)C(O)C(O)CC12C)C(N)C(=O)O (stereo not drawn)", "target": "SLC7A5", "assay": "transporter uptake", "quantity": "IC50", "value": "0.46 µM"}
{"Compound": "CC1C(=O)N(S(=O)(=O)c2ccc(C#N)cc2)C1c1ccccc1 (racemic)", "target": "glpG (Escherichia coli, UniProt P09391)", "assay": "enzyme activity, inhibitor", "quantity": "IC50", "value": "2 µM"}
{"Compound": "COc1cccc(OC)c1-c1cc(C(=O)NC2(C(=O)O)C3CC4CC(C3)CC2C4)nn1-c1ccc(C(=O)NCCNC(=O)[C@H](CCCCNC(=O)[C@H](CC(C)C)NC(=O)C2OC2C(=O)O)NC(=O)CN2CCN(CC(=O)O)CCN(CC(=O)O)CCN(CC(=O)O)CC2)cc1C(C)C (mixture of isomers)", "target": "NTSR1", "assay": "ligand displacement, radioligand", "quantity": "IC50", "value": "0.0097 µM"}
{"Compound": "Fc1ccc2nc(Nc3ccc(F)c(F)c3)nc(NC3CCCCC3)c2c1", "target": "ADRB2", "assay": "β-arrestin recruitment, antagonist", "quantity": "IC50", "value": "0.5 µM"}
{"Compound": "O=C(O)Cc1cc2c(cc1C(=O)c1ccccc1)OCO2", "target": "Gria1", "assay": "glutamate-evoked current, inhibitor, whole-cell patch clamp", "test system": "HEK293T, homomeric receptor", "quantity": "IC50", "value": "5.62 µM"}
{"Compound": "NC1=NCCc2ccccc21", "target": "NNMT", "assay": "enzyme activity in cells, inhibitor", "quantity": "IC50", "value": "> 31.6 µM"}
{"Compound": "Nc1ncnc2c1ncn2C1OC(CSCCNCc2cccc(-c3ccccc3)c2)C(O)C1O (stereo not drawn)", "target": "DNA adenine methyltransferase CamA (Clostridioides difficile, UniProt Q183J3)", "quantity": "IC50", "value": "4 ± 1 µM"}
{"Compound": "Brc1cccc(Nc2nc(NC3CCCCC3)c3ccccc3n2)c1", "target": "ADRB2", "assay": "β-arrestin recruitment, antagonist", "quantity": "IC50", "value": "2.5 µM"}
{"Compound": "Cc1n[nH]c(C)c1C(=O)CC1(O)C(=O)Nc2cc(Cl)cc(Cl)c21 (stereo not drawn)", "target": "Uncharacterized protein", "assay": "inhibitor, coupled colorimetric", "test system": "Trypanosoma brucei", "quantity": "IC50", "value": "> 100 µM"}
{"Compound": "COc1ccccc1C1CCN(c2nc(C3(F)CCC3)nc3c(Cl)cc(N(C)CCO)cc23)CC1", "target": "NTSR1", "assay": "G protein activation, antagonist", "quantity": "IC50", "value": "0.396 µM"}
{"Compound": "CC(=O)C1=C(c2ccc(F)cc2)N(C(C)=O)n2cnnc2S1", "target": "Uncharacterized protein", "assay": "enzyme activity, inhibitor, coupled colorimetric", "conditions": "added: E. coli pyrophosphatase coupling", "quantity": "IC50", "value": "41.4 µM"}
{"Compound": "C=CC(=O)N1C[C@H](C)N(c2nc(OC[C@@]34CCCN3C[C@H](F)C4)nc3c(F)c(-c4ccc(F)c5sc(N)c(C#N)c45)c(C(F)(F)F)cc23)C[C@H]1C", "target": "GTPase KRas, GppNHp; with RAF1 RBD (KRAS, Homo sapiens, UniProt P01116, G13D)", "quantity": "IC50", "value": "0.7 ± 0.08 µM"}
{"Compound": "Cc1cc2nc(C3CC3)nc(N3CCC(c4ccccc4N4CCC4)CC3)c2cc1N(C)CCO", "target": "NTSR1", "assay": "G protein activation, antagonist", "quantity": "IC50", "value": "5.98 µM"}
{"Compound": "O=C1Nc2ccccc2C12NC(c1ccc(F)cc1)C1(C(=O)Nc3ccccc31)N2Cc1ccc(F)cc1 (stereo not drawn)", "target": "PIK3CD", "assay": "enzyme activity, inhibitor, ADP detection", "quantity": "IC50", "value": "0.183 µM"}
{"Compound": "COC(=O)C12CCC(C)C(C)C1C1=CCC3C4(C)CCC(O)C(C)(C)C4CCC3(C)C1(C)CC2 (stereo not drawn)", "target": "UGT1A4 (Homo sapiens, UniProt P22310)", "assay": "enzyme activity, inhibitor", "test system": "human, liver microsomes", "quantity": "IC50", "value": "> 100 µM"}
{"Compound": "COc1ccc2c(c1OC)C(=O)N(c1nc3ccccc3s1)C2", "target": "ppa", "assay": "inhibitor, counter-screen, coupling enzyme alone", "quantity": "IC50", "value": "> 30 µM"}
{"Compound": "CNc1cc(N)c(C(N)=O)cn1", "target": "NNMT", "assay": "enzyme activity in cells, inhibitor", "quantity": "IC50", "value": "< 0.1 µM and 0.0631 µM"}
{"Compound": "Cc1nn(-c2cccc(N)c2)c(=O)c2cnc(Nc3ccc(N4CCNCC4)cc3)nc12", "target": "EPHB3 (Homo sapiens, UniProt P54753)", "assay": "enzyme activity, inhibitor", "quantity": "IC50", "value": "> 10 µM"}
{"Compound": "CC(=O)NC1C(=O)N(c2ccccc2)N=C1C (stereo not drawn)", "target": "ppa", "assay": "inhibitor, counter-screen, coupling enzyme alone", "quantity": "IC50", "value": "33.7 µM"}
{"Compound": "O=C(NC1CCC1)c1ccc2nc(-c3ccccc3)cn2c1", "target": "Protein AF-9, YEATS domain (Homo sapiens, UniProt P42568)", "assay": "YEATS domain binding, inhibitor, HTRF", "quantity": "IC50", "value": "0.41 µM"}
{"Compound": "O=C(CCNC(=O)CNC(=O)CC(c1ccccc1)(c1ccccc1)c1ccccc1)NC[C@@H]1CCCN(Cc2ccc3cc(F)ccc3c2)C1", "target": "CHRM3", "assay": "ligand displacement, radioligand", "conditions": "cell membranes", "quantity": "IC50", "value": "0.9 µM"}
{"Compound": "Cc1cc(Br)c2c(c1)C(O)(CC(=O)c1ccc(F)cc1)C(=O)N2 (stereo not drawn)", "target": "Uncharacterized protein", "assay": "inhibitor, coupled colorimetric", "test system": "Trypanosoma brucei", "quantity": "IC50", "value": "> 100 µM"}
{"Compound": "Cc1ccc2nc(Nc3ccc(F)c(F)c3)nc(NC3CCCCC3)c2c1", "target": "ADRB2", "assay": "β-arrestin recruitment, antagonist", "quantity": "IC50", "value": "0.36 µM"}
{"note": "A few entries again:"}
{"Compound": "CNc1cc(N)c(C(N)=O)cn1", "target": "NNMT", "assay": "enzyme activity in cells, inhibitor", "quantity": "IC50", "value": "< 0.1 µM and 0.0631 µM"}
{"Compound": "CC(C)c1ccc(/C=C/C(=O)c2nc3ccccc3[nH]2)cc1", "target": "MAOB (Homo sapiens, UniProt P27338)", "assay": "enzyme activity, inhibitor", "quantity": "IC50", "value": "4.71 µM"}
{"Compound": "NC1=NCCc2ccccc21", "target": "NNMT", "assay": "enzyme activity in cells, inhibitor", "quantity": "IC50", "value": "> 31.6 µM"}
{"Compound": "COC(=O)C12CCC(C)C(C)C1C1=CCC3C4(C)CCC(O)C(C)(C)C4CCC3(C)C1(C)CC2 (stereo not drawn)", "target": "UGT1A4 (Homo sapiens, UniProt P22310)", "assay": "enzyme activity, inhibitor", "test system": "human, liver microsomes", "quantity": "IC50", "value": "> 100 µM"}
